Results collected from several papers.
Numbered parts are unrelated; each lists some results of a single study.

Block 1 — method: RNA Bind-n-Seq; molecule type: RNA; matrix: in vitro; tested at: 365 nM; baseline: no-protein control; direction: higher = stronger binding
Target: RNA binding protein fox-1 homolog 2, RRM domain, GST-SBP tag (RBFOX2, Homo sapiens, UniProt O43251-10, residues 100-194)
Setting: natural RNA segment, single round, ends assumed
Construct (chain): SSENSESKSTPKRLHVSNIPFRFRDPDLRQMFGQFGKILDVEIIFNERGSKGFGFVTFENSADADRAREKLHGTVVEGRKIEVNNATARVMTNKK
| Oligonucleotide | RBNS enrichment (R) |
| --- | --- |
| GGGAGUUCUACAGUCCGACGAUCAGUCAGCCAAGGACAGUGCAGAGUCACGGGUUGGGAGGUAUGUGGGCUAGGGUAUGUGGUUUCCUCAGUCCUAAACGUCUGUGUGGCCAACUCAGCAUCUGCUUCCAGAAUGGAAUUCUCGGGUGCCAA | 1.02 |
| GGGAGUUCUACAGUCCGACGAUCAUCUUCUGUUUCUUUGAAUAGAAAGCACCACAGUGUUUUGCACUUGCCUCCAGUAAAGUGCCCUGGGAAGGGAGCUGGGCAGUGUUUGUGGACGAGAGACUGUAACGAUGUGGAAUUCUCGGGUGCCAA | 0.636 |
| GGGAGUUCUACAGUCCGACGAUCCCCCUGACAAUCCUGAGGCUUCAUCAGGAGCUAGAGCCAUUUAACAUUUCCUCUUUCCAAGACCAACCUACAAUUUUCCCUUGAUAACCAUAUAAAUUCUGAUUUAAGGUUGGAAUUCUCGGGUGCCAA | 0.739 |
| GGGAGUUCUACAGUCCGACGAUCUCCGUAUCUGGUUGCAAUUGAAAACUGAUGCUUCAGUGAGGGUAUCUAAAAAGGUAAACUGGCAUAUCCAGGGCAAAUGUGGGCUGCCAAUGGCUCAUCUCUAGGGUAAUUGGAAUUCUCGGGUGCCAA | 0.349 |
| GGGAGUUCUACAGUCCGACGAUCCUGUGUGUGCUCUGGACACUGUACAUUUGUACCCAACCAAGUGGGUCAAGUCGGAGAGGGACUCUUCAGUAUGGAGGCAGCCUGUGGAGUGCAGCGCCUUUGAGGCUCUGUGGAAUUCUCGGGUGCCAA | 0.758 |
| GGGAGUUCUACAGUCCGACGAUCAAAUCUGGCUGCCCGUUUACUUUCUGAGCAAGCACUGGAGUCCACUCCGACCUUUUUCUUUGAACAUGCAUGCUGCUGGAAUAUGUAUAAAUCAGAACUAGCAGAAGUAGUGGAAUUCUCGGGUGCCAA | 1.55 |
| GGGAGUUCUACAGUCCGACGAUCGGCUAAUUUAUUUUAUUUCUGAUUAUUUUAUCCAGAGGGUACUUUUUUAAUGGAUAUUUGUAAAUCUUCCACUUAACCACUGAAAAUUAUUUUGUUUUAAUCCCACCCUUUGGAAUUCUCGGGUGCCAA | 1.04 |
| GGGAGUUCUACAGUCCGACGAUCUUUCUCUGUGUAGCCCUGGCUGUCCUGAAACUCACUCUGUAGAGCAGGCUGGCCUCGAACUUGGAUAUCCACCUGCCUCUCCCUCCCGAGUGCUGGGUUUAAAGGUAUGCUGGAAUUCUCGGGUGCCAA | 0.184 |
| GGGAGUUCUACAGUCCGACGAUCGUUGGCCUGUGUGUUCCAUCUCUGCUCACCUCUGCCUCUACUCUGAGAUGCAGCCUGGCUGAUCCUCCCAUCUCUAAAACUGAAUGUCAAACCGUGCCAAAUGCUGGGGGUGGAAUUCUCGGGUGCCAA | 0.66 |
| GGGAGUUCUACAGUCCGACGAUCCCCAUAUUUUGGUACCAGUUUCUCCUCAUGAAAUGCAGUCCCUGGAUUCUGUGCCAUCUGAACAUGCUCUCCUGUUGGUGUGUAUGUCACUAGGGCAGUGGGGAGACGUCUGGAAUUCUCGGGUGCCAA | 0.359 |
| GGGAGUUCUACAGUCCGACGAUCUGUCUGAGAGGCGUGAAGGGCCUGGAGCCACUCUGCUAGAAGAGACCAAUAAAGGGCAGGUGUGGAACGGCCAGCCUGUGUGUGUGUUCUUUGACAGAGGGCGGAGGGAAUGGAAUUCUCGGGUGCCAA | 0.756 |
| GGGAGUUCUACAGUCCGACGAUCGUUCUCAAGGCUCUCUACAGGUUGCCUCUUGUACUCAGAAGUAUUAAACACUGAUUAUUAAACCUUCUGCGAUGCAGCCUUGACUUAUUUGUGGGAAAUCGCAAUCAGAGUGGAAUUCUCGGGUGCCAA | 0.38 |

Block 2 — method: protein binding microarray; molecule type: double-stranded DNA, one strand shown; matrix: in vitro; tested at: not given; baseline: not given; direction: higher = stronger binding
Target: Histone acetyltransferase KAT6A, both winged helices, GST fusion (KAT6A, Homo sapiens, UniProt Q92794, residues 1-181)
Setting: 8-mer, flanks averaged, mean of 2 arrays, mostly near background
Residues (chain): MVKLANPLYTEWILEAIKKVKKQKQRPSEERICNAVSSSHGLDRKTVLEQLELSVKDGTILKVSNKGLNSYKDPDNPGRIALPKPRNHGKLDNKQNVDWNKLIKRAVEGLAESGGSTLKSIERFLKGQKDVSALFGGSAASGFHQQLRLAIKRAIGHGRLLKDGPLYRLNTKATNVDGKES
| Oligonucleotide | E-score |
| --- | --- |
| GAGCCGTA | 0.252 |
| ACCCATAA | -0.131 |
| CAGGGAGG | -0.202 |
| CGCTTGGA | 0.13 |
| AAGCATCA | -0.0938 |
| CAGGTGCA | -0.261 |
| CGTGTCTA | 0.102 |
| ACTCTCCT | -0.215 |
| ATTATGTC | 0.0215 |
| AACTTAGT | 0.0194 |
| CCACAGTA | -0.0924 |
| CTCTTAAA | -0.248 |
| AAAGACTC | -0.0363 |
| AGTAGCCA | -0.235 |
| GTTATAGA | -0.0787 |
| ACTAAACC | 0.134 |
| ATGCACGC | 0.13 |
| CTATGTTC | -0.0425 |
| ACTTGGTG | -0.272 |
| AACAATCG | -0.0368 |
| CCTACCAG | -0.135 |
| ACCACCTC | -0.189 |
| GTCCACCA | -0.151 |
| CTCCGTCC | 0.0952 |
| CTTGAACC | -0.019 |

Block 3 — method: universal PBM; molecule type: double-stranded DNA, one strand shown; matrix: in vitro; tested at: 600 nM; direction: higher = stronger binding
Target: Sal-like protein 4, full length isoform A (SALL4, Homo sapiens, UniProt Q9UJQ4, residues 1-1053)
Chain of UniProt Q9UJQ4 (whole entry, looked up): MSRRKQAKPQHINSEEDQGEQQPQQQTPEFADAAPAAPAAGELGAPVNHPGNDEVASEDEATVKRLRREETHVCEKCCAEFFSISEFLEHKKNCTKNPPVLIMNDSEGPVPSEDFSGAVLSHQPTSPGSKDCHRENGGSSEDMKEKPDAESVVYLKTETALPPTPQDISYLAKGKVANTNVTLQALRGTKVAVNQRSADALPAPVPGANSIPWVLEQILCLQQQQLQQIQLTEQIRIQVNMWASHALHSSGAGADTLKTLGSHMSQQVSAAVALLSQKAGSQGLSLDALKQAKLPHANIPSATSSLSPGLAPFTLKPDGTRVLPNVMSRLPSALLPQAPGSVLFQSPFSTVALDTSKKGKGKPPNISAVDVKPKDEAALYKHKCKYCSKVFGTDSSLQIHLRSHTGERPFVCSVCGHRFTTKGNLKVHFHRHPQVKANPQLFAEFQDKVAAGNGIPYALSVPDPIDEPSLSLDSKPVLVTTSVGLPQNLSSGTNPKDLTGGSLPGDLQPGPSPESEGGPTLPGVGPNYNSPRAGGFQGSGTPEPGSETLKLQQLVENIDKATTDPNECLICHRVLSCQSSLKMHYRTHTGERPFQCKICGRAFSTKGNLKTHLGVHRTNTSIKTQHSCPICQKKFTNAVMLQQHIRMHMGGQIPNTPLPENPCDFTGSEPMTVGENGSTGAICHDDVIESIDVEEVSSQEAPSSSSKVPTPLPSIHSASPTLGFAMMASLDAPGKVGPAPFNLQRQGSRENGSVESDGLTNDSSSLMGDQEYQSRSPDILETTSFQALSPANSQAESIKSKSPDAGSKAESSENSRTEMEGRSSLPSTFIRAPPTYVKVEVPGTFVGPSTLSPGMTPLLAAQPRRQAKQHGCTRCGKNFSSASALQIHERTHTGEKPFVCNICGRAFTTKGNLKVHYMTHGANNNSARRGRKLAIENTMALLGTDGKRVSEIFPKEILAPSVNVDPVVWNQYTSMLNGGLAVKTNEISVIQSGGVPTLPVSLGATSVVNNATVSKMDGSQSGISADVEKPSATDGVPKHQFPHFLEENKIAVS
Setting: 8-mer, flanks averaged, mean of replicates
| Oligonucleotide | E-score |
| --- | --- |
| GACGCATA | 0.127 |
| ATTCTAGC | 0.117 |
| TGTCAACA | 0.157 |
| GTCGTCTA | -0.156 |
| TAAACTTA | 0.235 |
| ATACCAGC | -0.0656 |
| GTCTAACA | 0.0526 |
| ACAACTTG | 0.0347 |
| ATCGTGAG | -0.115 |
| CAATAACA | 0.252 |
| TCCTTACA | 0.0237 |
| CGGGAGTA | -0.103 |
| ATTTGGAG | 0.00184 |
| CATTAAGA | 0.181 |
| ACTTGCTA | 0.00793 |
| AACGAAAA | 0.26 |
| ACTGCACG | -0.149 |
| AAATCCGC | -0.205 |
| ACCCACAT | 0.124 |
| ATAGGTGC | -0.0121 |
| ATAAGGGG | 0.0294 |
| GGCTTAGA | -0.0378 |
| ATGCATTA | 0.301 |
| AATAGCGC | 0.0798 |
| ATTGTGAG | 0.143 |

Block 4 — method: aptamer microarray, sandwich; molecule type: DNA with 2'F-ANA; matrix: in vitro; tested at: 200 nM; added: Cy3 exosite-II aptamer, 400 nM; direction: higher = stronger binding; oligonucleotide: GGTTGGTGTGGTTGG
Target: Prothrombin, mature alpha-thrombin (F2, Homo sapiens, UniProt P00734)
Setting: whole 15-mer aptamer, many near background
| Modification | mean fluorescence intensity |
| --- | --- |
| 2'F-ANA at 1 5 6 7 | 57.1 a.u. |
| 2'F-ANA at 1 3 4 5 9 12 | 127 a.u. |
| 2'F-ANA at 2 3 10 11 | 412 a.u. |
| 2'F-ANA at 1 2 3 4 9 13 | 97.6 a.u. |
| 2'F-ANA at 2 3 10 12 13 | 406 a.u. |
| 2'F-ANA at 4 8 10 11 13 14 15 | 57.3 a.u. |
| 2'F-ANA at 3 6 7 8 9 10 11 13 14 15 | 339 a.u. |
| 2'F-ANA at 1 3 4 5 7 8 9 10 12 13 14 | 49 a.u. |
| 2'F-ANA at 1 4 6 7 8 9 10 12 15 | 80.6 a.u. |
| 2'F-ANA at 1 2 3 4 6 8 10 11 | 61 a.u. |
| 2'F-ANA at 1 2 3 5 6 8 9 11 12 15 | 98.6 a.u. |
| 2'F-ANA at 1 2 7 9 11 13 14 15 | 55.3 a.u. |
| 2'F-ANA at 2 5 7 9 14 | 44.2 a.u. |
| 2'F-ANA at 2 3 5 7 10 12 | 70.3 a.u. |
| 2'F-ANA at 1 2 5 7 11 13 14 15 | 47.8 a.u. |
| 2'F-ANA at 1 3 4 6 8 9 11 12 13 15 | 235 a.u. |
| 2'F-ANA at 2 3 4 8 9 10 11 12 13 | 214 a.u. |
| 2'F-ANA at 1 2 4 8 9 10 13 | 61.2 a.u. |
| 2'F-ANA at 2 3 4 5 6 7 9 13 14 | 44.8 a.u. |
| 2'F-ANA at 2 3 4 5 6 10 13 14 15 | 46.9 a.u. |
| 2'F-ANA at 2 3 6 7 8 9 10 11 12 13 | 320 a.u. |
| 2'F-ANA at 1 6 8 9 10 11 12 13 | 62.7 a.u. |
| 2'F-ANA at 3 4 5 12 13 15 | 135 a.u. |
| 2'F-ANA at 1 3 6 8 9 10 12 13 14 15 | 76.1 a.u. |

Repeated from above (block 2):
| Oligonucleotide | E-score |
| --- | --- |
| CAGGGAGG | -0.202 |
| CGCTTGGA | 0.13 |
| AAGCATCA | -0.0938 |
| CAGGTGCA | -0.261 |
| CGTGTCTA | 0.102 |
| ACTCTCCT | -0.215 |
| ATTATGTC | 0.0215 |
| AACTTAGT | 0.0194 |
| CCACAGTA | -0.0924 |
| CTCTTAAA | -0.248 |
| AAAGACTC | -0.0363 |
| AGTAGCCA | -0.235 |
| GTTATAGA | -0.0787 |
